{"data": "Published values pooled from the literature", "note": "Every numbered part comes from another study and shows a few of its results, in no order. Positions count from the first letter of the parent shown."}
{"data": "Set 1", "target": "Interferon regulatory factor 7, full length, phosphomimetic (IRF7, Homo sapiens, UniProt Q92985, residues 1-503, S471D/S472D/S475D/S476D/S477D/S483D/S484D/S487D)", "technique": "protein-binding microarray", "form": "double-stranded DNA, one strand shown", "sample": "in vitro", "tested at": "2200 nM top", "setting": "60-bp whole probe", "added": "salmon DNA 0.4 mg/ml", "baseline": "random background probes", "reading": "higher = stronger binding", "shared flanks, not repeated": "GCCTAGCAC … GTCTTGATTCGCTTGACGCTGCTG", "sequence of UniProt Q92985 (whole entry, unmodified, looked up)": "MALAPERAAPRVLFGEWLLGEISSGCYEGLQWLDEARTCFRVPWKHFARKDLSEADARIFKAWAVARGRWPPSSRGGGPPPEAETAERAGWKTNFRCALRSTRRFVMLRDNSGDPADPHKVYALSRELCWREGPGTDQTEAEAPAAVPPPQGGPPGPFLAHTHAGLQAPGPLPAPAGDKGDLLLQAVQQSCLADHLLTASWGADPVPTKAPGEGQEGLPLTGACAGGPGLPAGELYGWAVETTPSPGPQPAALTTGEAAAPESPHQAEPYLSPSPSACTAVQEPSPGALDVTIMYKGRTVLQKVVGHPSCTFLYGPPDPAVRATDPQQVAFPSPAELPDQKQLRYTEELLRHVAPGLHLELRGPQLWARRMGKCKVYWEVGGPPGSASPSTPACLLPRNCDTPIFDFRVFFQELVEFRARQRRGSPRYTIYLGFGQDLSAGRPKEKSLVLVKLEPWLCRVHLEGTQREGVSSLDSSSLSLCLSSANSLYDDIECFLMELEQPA"}
{"Sequence": "GTTAGTGGGATGGCTGTGGTGTGCTAG", "fitted relative affinity [z-score]": -0.777}
{"Sequence": "TTAGAAATGGGGTATCGATTAGTGCTA", "fitted relative affinity [z-score]": 0.095}
{"Sequence": "TTAGATTTCGTGTTTCGATTAGTGCTA", "fitted relative affinity [z-score]": 5.28}
{"Sequence": "TTAGGTATCGGGACTGAGTTAGTGCTA", "fitted relative affinity [z-score]": -0.176}
{"Sequence": "TTAGGCATCGACACTGGGTTAGTGCTA", "fitted relative affinity [z-score]": -0.784}
{"Sequence": "GCCTTTATATACCTGAATATGTGCTAG", "fitted relative affinity [z-score]": 0.805}
{"Sequence": "GACGGTTCCCTTTTCCTGATGTGCTAG", "fitted relative affinity [z-score]": 2.65}
{"Sequence": "TTAGGACGGGGTTTCGGTTAGTGCTAG", "fitted relative affinity [z-score]": 3.73}
{"Sequence": "CTCCTCTCTGGGTCAAAGGTGTGCTAG", "fitted relative affinity [z-score]": 0.291}
{"Sequence": "GACGTTATCGGACTGGGGACGTGCTAG", "fitted relative affinity [z-score]": -0.056}
{"Sequence": "GACGGACTGGAACTGGGGACGTGCTAG", "fitted relative affinity [z-score]": -0.823}
{"Sequence": "TCATGACACCGATTTCATACTGTGCTA", "fitted relative affinity [z-score]": 1.18}
{"Sequence": "GACGGACTGGACACGGGGGACGTGCTA", "fitted relative affinity [z-score]": -0.207}
{"Sequence": "TCATTTTTCTGATCCATACTGTGCTAG", "fitted relative affinity [z-score]": 3.13}
{"Sequence": "AGACATGACACCACTCCTGAGTGCTAG", "fitted relative affinity [z-score]": 0.363}
{"Sequence": "TCACTTATCCTATCAGTACTGTGCTAG", "fitted relative affinity [z-score]": 1.8}
{"Sequence": "TTGGCTTATTCCAGATTTTTGTGCTAG", "fitted relative affinity [z-score]": 0.439}
{"Sequence": "GACGGACTGGTTTTCCTGACGTGCTAG", "fitted relative affinity [z-score]": 0.289}
{"Sequence": "TTAGATATCAGTTTCGACTAGTGCTAG", "fitted relative affinity [z-score]": 2.95}
{"data": "Set 2", "target": "Phosphate system positive regulatory protein PHO4, full length, GST-tagged (PHO4, Saccharomyces cerevisiae, UniProt P07270, residues 1-312)", "technique": "competition protein-binding microarray", "form": "double-stranded DNA, one strand shown", "sample": "in vitro", "tested at": "2 µM", "setting": "whole 60-bp probe, lowest competitor level", "added": "Cbf1 competitor, 0.05 µM", "reading": "higher = stronger binding", "shared flanks, not repeated": "… GTCTTGATTCGCTTGACGCTGCTG", "Residues (chain)": "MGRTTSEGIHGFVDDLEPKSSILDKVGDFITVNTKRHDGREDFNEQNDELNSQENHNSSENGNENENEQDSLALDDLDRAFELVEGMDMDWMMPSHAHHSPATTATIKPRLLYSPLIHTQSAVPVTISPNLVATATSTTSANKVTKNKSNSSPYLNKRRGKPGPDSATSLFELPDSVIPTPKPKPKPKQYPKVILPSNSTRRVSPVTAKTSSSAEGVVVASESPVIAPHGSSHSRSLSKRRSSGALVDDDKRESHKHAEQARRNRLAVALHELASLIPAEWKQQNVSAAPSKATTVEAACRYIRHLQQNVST"}
{"Sequence": "CACTATCCATCCTGGCACGTGTTCCTGGCCACCTTG", "fluorescence intensity": "19400 a.u."}
{"Sequence": "TTTTAAGGGTTTCGCCATGTGGCATGCCACCGGCAA", "fluorescence intensity": "8780 a.u."}
{"Sequence": "ACGACCAAGTTCATCTAAAATTAACAGTGTTTCTGT", "fluorescence intensity": "4050 a.u."}
{"Sequence": "AAAGCGGTAATTTGTAGAGTGGGTGCAGATATCTAT", "fluorescence intensity": "4560 a.u."}
{"Sequence": "CAGGATTTTCCAGTTCGCGTGGTCGTCATAGTTGGG", "fluorescence intensity": "6490 a.u."}
{"Sequence": "CTTTCTGCCAAATTGAACGTGTCGGTCAAGCAATCC", "fluorescence intensity": "9400 a.u."}
{"Sequence": "AAAGCGGTAATTTGTGTAGTGGGTGCAGATATCTAT", "fluorescence intensity": "4580 a.u."}
{"Sequence": "TAAAATGACTGACAGCACGGGACCTTTGAAATTTTG", "fluorescence intensity": "8620 a.u."}
{"Sequence": "GTGATATATTTGATACTTTTGAGATATCCTTGAAAG", "fluorescence intensity": "3540 a.u."}
{"Sequence": "AAATTACTAAGTTGGAGTGTGGGTGACGCCGTATGA", "fluorescence intensity": "5390 a.u."}
{"Sequence": "CATACCCAACCTTGTACGGTGGGTGAAGATATTTGT", "fluorescence intensity": "3870 a.u."}
{"Sequence": "TCTTTACCTTTGTTCCACGTGTCGGTCCGTACAATT", "fluorescence intensity": "16800 a.u."}
{"Sequence": "GATGGAGGATGCCCCCATGTGCTGATTCTCCCCGTA", "fluorescence intensity": "11800 a.u."}
{"Sequence": "GGTTGCGACGGAATCCACGTGCAAAACAACATAGTC", "fluorescence intensity": "18500 a.u."}
{"Sequence": "ATATTATCTTGCGAGCATGTGCACTCAATTTCGGGG", "fluorescence intensity": "12700 a.u."}
{"Sequence": "CGGATCGCGCTGACGCACGCTGCGTTTACCAAACTT", "fluorescence intensity": "7710 a.u."}
{"Sequence": "AAAGCGGTAATTTGTCACGTGTTTTCACATATCTAT", "fluorescence intensity": "16100 a.u."}
{"Sequence": "CTTCTGTAAATTTGGGGGGTGGGTGGACGCGCCCCG", "fluorescence intensity": "5330 a.u."}
{"Sequence": "GTCTTGTCTCATTGCCACGTGGGTGTCCCCACTTCA", "fluorescence intensity": "19100 a.u."}
{"data": "Set 3", "target": "CCNA1, cyclin fold, Cln2 fusion (human)", "technique": "yeast growth competition, sequencing", "sample": "yeast", "setting": "weak parent motif", "baseline": "not given", "reading": "higher = stronger binding", "starting sequence": "BRCA2 docking peptide (human); PSIKRNLLNEFDR; partner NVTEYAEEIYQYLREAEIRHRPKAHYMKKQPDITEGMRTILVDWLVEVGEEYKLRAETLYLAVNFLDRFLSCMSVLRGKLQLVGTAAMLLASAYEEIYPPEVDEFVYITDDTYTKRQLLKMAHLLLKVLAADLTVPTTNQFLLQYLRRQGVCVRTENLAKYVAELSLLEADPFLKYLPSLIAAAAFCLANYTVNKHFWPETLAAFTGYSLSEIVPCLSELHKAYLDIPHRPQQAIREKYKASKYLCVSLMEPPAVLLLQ"}
{"Variant": "R13V", "normalised enrichment score": 0.381}
{"Variant": "N9A", "normalised enrichment score": 0.791}
{"Variant": "L7Q", "normalised enrichment score": 0.503}
{"Variant": "R5D", "normalised enrichment score": 0.461}
{"Variant": "D12S", "normalised enrichment score": 0.329}
{"Variant": "R5I", "normalised enrichment score": 0.408}
{"Variant": "R13I", "normalised enrichment score": 0.889}
{"Variant": "D12F", "normalised enrichment score": 0.711}
{"Variant": "E10A", "normalised enrichment score": 0.282}
{"Variant": "L7C", "normalised enrichment score": 0.273}
{"Variant": "I3P", "normalised enrichment score": 0.437}
{"Variant": "E10R", "normalised enrichment score": -0.0176}
{"Variant": "P1M", "normalised enrichment score": 0.332}
{"Variant": "L8M", "normalised enrichment score": 0.724}
{"Variant": "R13H", "normalised enrichment score": 0.338}
{"Variant": "E10T", "normalised enrichment score": -0.492}
{"Variant": "E10Q", "normalised enrichment score": 0.307}
{"Variant": "P1V", "normalised enrichment score": 0.577}
{"Variant": "L7Y", "normalised enrichment score": 0.0865}
{"Variant": "R5W", "normalised enrichment score": 0.0658}
{"Variant": "F11G", "normalised enrichment score": 0.567}
{"Variant": "D12A", "normalised enrichment score": 0.72}
{"Variant": "K4E", "normalised enrichment score": 0.13}
{"Variant": "I3A", "normalised enrichment score": 0.692}
{"Variant": "L8R", "normalised enrichment score": -0.259}
{"data": "Set 4", "target": "ABI1, truncated, D143A, DHFR fusion (Arabidopsis thaliana)", "technique": "DHFR PCA, deep sequencing", "sample": "yeast", "setting": "methotrexate growth selection, single substitutions", "added": "(+)-ABA 710 µM", "baseline": "wild-type fitted maximum", "reading": "higher = stronger binding", "starting sequence": "PYL1, truncated, DHFR fusion (Arabidopsis thaliana); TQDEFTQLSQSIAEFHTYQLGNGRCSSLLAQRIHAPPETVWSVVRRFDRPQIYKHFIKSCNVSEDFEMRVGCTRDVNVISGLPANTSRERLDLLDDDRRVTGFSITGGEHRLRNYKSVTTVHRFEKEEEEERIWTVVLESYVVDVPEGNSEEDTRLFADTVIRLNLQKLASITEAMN; partner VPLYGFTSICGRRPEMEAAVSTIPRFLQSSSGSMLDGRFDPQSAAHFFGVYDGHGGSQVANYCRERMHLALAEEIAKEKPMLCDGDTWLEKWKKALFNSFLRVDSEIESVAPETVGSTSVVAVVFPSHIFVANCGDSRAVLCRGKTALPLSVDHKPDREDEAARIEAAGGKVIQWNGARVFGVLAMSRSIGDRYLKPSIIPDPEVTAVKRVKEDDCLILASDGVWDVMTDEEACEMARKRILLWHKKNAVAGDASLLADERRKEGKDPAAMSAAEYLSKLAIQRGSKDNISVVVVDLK"}
{"Variant": "N85P", "relative binding score": "76.1%"}
{"Variant": "G102S", "relative binding score": "109%"}
{"Variant": "F157I", "relative binding score": "88.4%"}
{"Variant": "E127F", "relative binding score": "103%"}
{"Variant": "N149R", "relative binding score": "50.1%"}
{"Variant": "R45C", "relative binding score": "80.9%"}
{"Variant": "L20K", "relative binding score": "99.7%"}
{"Variant": "G23R", "relative binding score": "99.4%"}
{"Variant": "D3R", "relative binding score": "96.8%"}
{"Variant": "S27H", "relative binding score": "101%"}
{"Variant": "F15N", "relative binding score": "92.9%"}
{"Variant": "E129T", "relative binding score": "106%"}
{"Variant": "E14F", "relative binding score": "77.8%"}
